Measured values collected from several papers.
Each numbered part is a random draw from the data of one study; scales do not carry over between parts.

Series 1 — method: universal PBM; molecule type: double-stranded DNA, one strand shown; matrix: in vitro; tested at: not given; reading: higher = stronger binding
Target: Sal-like protein 4, full length isoform B (SALL4, Homo sapiens, UniProt Q9UJQ4-2, residues 1-616)
Setting: 8-mer, flanks averaged, mean of replicates
Construct (chain): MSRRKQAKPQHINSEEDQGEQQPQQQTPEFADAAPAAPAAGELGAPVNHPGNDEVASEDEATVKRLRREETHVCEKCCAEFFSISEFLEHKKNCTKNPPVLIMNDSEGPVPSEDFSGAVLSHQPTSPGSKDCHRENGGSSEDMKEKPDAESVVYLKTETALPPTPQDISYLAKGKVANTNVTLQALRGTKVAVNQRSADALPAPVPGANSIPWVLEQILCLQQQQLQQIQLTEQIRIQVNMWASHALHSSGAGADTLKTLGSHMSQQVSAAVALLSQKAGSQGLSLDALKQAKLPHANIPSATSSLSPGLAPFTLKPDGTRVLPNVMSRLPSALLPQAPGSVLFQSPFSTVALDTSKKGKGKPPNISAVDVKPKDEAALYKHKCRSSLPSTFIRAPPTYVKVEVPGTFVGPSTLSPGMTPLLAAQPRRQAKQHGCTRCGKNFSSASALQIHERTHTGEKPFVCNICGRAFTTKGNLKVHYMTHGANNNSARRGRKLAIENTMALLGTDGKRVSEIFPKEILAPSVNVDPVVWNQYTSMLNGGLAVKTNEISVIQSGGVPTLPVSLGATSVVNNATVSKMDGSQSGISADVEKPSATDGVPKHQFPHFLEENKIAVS
With `CCTCCTTA` the E-score was -0.0238.
With `AGAATACC` the E-score was 0.058.
`AATTATTC` has an E-score of 0.394.
With `CTAGTACA` the E-score was 0.141.
For `AACAACCA`, the E-score was 0.183.
With `ACTTCGCA` the E-score was -0.0448.
For `CGAGTACC`, the E-score was -0.0333.
With `ACGTCTAA` the E-score was 0.0996.
`CTACCCTA` gave an E-score of -0.0623.
`GCCTTTCA` gave an E-score of -0.0461.
`AGATGGCA` has an E-score of 0.092.
With `ACCAAGAA` the E-score was 0.0511.
`GGCCTAAA` gave an E-score of -0.0445.
`ACTGCGCC` has an E-score of -0.326.
`AAAGTGTT` has an E-score of 0.162.
The E-score of `CTGCAAAC` is reported as 0.0345.
`CATCCTGG` gave an E-score of -0.0659.
For `AGAACGCC`, the E-score was -0.208.
For `AAGGCCTT`, the E-score was -0.0816.
`AATACGTG` gave an E-score of 0.163.
For `GGGCAGTA`, the E-score was -0.211.
`CCGTCGAC` gave an E-score of -0.237.
`TATCGAGA` has an E-score of 0.161.

Series 2 — method: protein-binding microarray; molecule type: double-stranded DNA, one strand shown; matrix: in vitro; tested at: 250 nM; setting: 60-bp whole probe; added: salmon DNA 0.4 mg/ml; relative to: random background probes; reading: higher = stronger binding; shared flanks, not repeated: GCCTAGCAC … GTCTTGATTCGCTTGACGCTGCTG
Target: Interferon regulatory factor 7, full length, phosphomimetic (IRF7, Homo sapiens, UniProt Q92985, residues 1-503, S101K/S471D/S472D/S475D/S476D/S477D/S483D/S484D/S487D)
Chain of UniProt Q92985 (whole entry, unmodified, looked up): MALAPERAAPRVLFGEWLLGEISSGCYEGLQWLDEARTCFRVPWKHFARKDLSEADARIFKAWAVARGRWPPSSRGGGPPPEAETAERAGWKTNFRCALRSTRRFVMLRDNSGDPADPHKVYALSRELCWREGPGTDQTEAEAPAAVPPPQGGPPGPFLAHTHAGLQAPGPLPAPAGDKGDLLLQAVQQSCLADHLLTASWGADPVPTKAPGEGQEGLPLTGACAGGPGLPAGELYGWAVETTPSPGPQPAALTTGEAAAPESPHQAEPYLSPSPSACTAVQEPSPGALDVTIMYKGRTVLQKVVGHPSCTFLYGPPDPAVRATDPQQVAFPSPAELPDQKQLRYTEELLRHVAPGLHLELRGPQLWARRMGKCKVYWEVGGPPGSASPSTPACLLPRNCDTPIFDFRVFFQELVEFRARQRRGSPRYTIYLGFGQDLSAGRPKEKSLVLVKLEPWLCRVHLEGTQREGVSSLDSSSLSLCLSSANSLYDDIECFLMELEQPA
With `TTAGGTAGCGGGTATCGGTTAGTGCTA` the log fluorescence was -0.0282 z-score.
With `GAACATACTAATTTCCATTTGTGCTAG` the log fluorescence was 1.71 z-score.
`TTAGATATCGGGACAGGATTAGTGCTA` gave a log fluorescence of 0.398 z-score.
With `AACGGACTGCTTTTCCTGACGTGCTAG` the log fluorescence was 0.255 z-score.
With `TTAGGTATCCTTTTCCTTTTGTGCTAG` the log fluorescence was 2.11 z-score.
The log fluorescence of `CTGTTTTTCTCACCACATTTTGTGCTA` is reported as 2.28 z-score.
For `TCACTTTACTCACTCGGACTGTGCTAG`, the log fluorescence was 1.3 z-score.
For `CTAGATATCAGTTTCGATTAGTGCTAG`, the log fluorescence was 8.93 z-score.
`TCAGTTTTCAGTCCTGGACTGTGCTAG` gave a log fluorescence of 0.967 z-score.
The log fluorescence of `TTAGGTTTCGCCTTTCGGTTAGTGCTA` is reported as 8.38 z-score.
`TCACATTTCACAGTTAAACTGTGCTAG` gave a log fluorescence of 1.35 z-score.
With `TTAGGTTTCCCACTGCTTTAGTGCTAG` the log fluorescence was 1.42 z-score.
The log fluorescence of `ATAGGTTTCCTTTTCCTTTAGTGCTAG` is reported as 6.66 z-score.
`GACGGACTGGCCTATCGGGACGTGCTA` gave a log fluorescence of -0.493 z-score.
With `TCATTTTGCACTCTCTAACTGTGCTAG` the log fluorescence was 1.4 z-score.
For `GACGATTTGAGTCTCGAGACGTGCTAG`, the log fluorescence was 0.319 z-score.
With `TTAAGTTTCCTTATCCTTTAGTGCTAG` the log fluorescence was 3.55 z-score.

Series 3 — method: RNA Bind-n-Seq; molecule type: RNA; matrix: in vitro; tested at: 200 nM; setting: whole 134-nt RNA, ends assumed; added: 150 mM LiCl; relative to: input library; reading: higher = stronger binding; each molecule: 7-deaza-guanosine replaces G
Target: Ras GTPase-activating protein-binding protein 1, full length (G3BP1, Homo sapiens, UniProt Q13283)
Chain of UniProt Q13283 (whole entry, looked up): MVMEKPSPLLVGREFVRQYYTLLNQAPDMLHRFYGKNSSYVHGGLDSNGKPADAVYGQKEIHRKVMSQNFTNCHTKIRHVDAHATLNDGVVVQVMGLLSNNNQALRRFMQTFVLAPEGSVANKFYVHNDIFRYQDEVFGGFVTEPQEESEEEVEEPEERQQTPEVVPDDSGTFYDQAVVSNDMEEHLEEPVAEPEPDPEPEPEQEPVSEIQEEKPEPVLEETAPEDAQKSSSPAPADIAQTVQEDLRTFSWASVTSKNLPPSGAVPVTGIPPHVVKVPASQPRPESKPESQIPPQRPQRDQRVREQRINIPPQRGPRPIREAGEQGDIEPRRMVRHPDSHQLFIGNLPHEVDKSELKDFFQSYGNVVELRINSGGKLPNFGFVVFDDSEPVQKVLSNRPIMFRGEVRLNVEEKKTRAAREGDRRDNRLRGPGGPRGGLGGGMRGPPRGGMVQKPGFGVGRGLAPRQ
For `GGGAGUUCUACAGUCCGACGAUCCAAGUCCUGUGCUACACAUCGUAUGUACCGAAUCGGGGUUGGGUUGGGGUUGGGGAAAGUAUUAUGUUACGCCGUUCGGAUCUGCACUUCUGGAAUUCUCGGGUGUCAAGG`, the log2 enrichment was 0.413.
`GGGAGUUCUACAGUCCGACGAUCGUCCUGUGCUACACAUCGUAUGUACCGAAUCAAACCCCCAAAUUUUUUUAAAUUUAAAAAAGUAUUAUGUUACGCCGUUCGGAUCUGCACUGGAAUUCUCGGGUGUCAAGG` gave a log2 enrichment of 0.504.
`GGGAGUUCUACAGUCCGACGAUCACCAUGCAGGUGGGCAUCUUUGGGAAGUGGGGCAAGGGGGGGAUAGGGAGGGGGGUAACACUUUGGGAAGAGGUGGUCCCAGGUCGUUUCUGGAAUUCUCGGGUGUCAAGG` gave a log2 enrichment of -0.0908.
`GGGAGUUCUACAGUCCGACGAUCAAGUCCUGUGCUACACAUCGUAUGUACCGAAUCGGUUUGGGGUUUGGGGUUUGGGGAAAGUAUUAUGUUACGCCGUUCGGAUCUGCACUUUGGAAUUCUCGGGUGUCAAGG` has a log2 enrichment of -1.39.
`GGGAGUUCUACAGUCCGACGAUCCUCAAGUCCUGUGCUACACAUCGUAUGUACCGAAUCGGCCGGCCGGGCCGGGGAAAGUAUUAUGUUACGCCGUUCGGAUCUGCACUUCCAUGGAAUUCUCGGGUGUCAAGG` has a log2 enrichment of 0.577.
For `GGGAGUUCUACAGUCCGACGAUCAGUUCUAUCUCUGGGGUGACUGCCGCAUAUAACCGAGAACAGCUGUGGCUGGCCAAUGAAGGCCUGAUCACCAGGCUGCAGGCUCGCUGCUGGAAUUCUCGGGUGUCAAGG`, the log2 enrichment was 0.338.
`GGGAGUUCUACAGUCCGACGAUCCUCAAGUCCUGUGCUACACAUCGUAUGUACCGAAUCGGGCGGGGCGGGGCGGGAAAGUAUUAUGUUACGCCGUUCGGAUCUGCACUUCCAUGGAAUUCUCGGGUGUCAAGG` has a log2 enrichment of 0.113.
`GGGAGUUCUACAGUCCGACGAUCUUACAUUACCUGGUGAAAUAGACAUUGACAGUAUCUCCUAUGAAGAGCUUUCACCACCUGAUGAAGAGCCUGCCAAGAAUAAAAAGGAAAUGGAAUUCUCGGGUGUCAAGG` has a log2 enrichment of -1.88.
`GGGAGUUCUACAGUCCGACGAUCAGUCCUGUGCUACACAUCGUAUGUACCGAAUCGGGUGGGAAAAAAAGGGUUUUUGGGAAAGUAUUAUGUUACGCCGUUCGGAUCUGCACUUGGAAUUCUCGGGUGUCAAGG` has a log2 enrichment of -1.35.
The log2 enrichment of `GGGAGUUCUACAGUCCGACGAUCUCCUCAAGUCCUGUGCUACACAUCGUAUGUACCGAAUCGGGAGGAGGGGAGGAAAGUAUUAUGUUACGCCGUUCGGAUCUGCACUUCCAGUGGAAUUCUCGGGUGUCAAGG` is reported as -0.359.
The log2 enrichment of `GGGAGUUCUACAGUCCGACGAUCCAAGUCCUGUGCUACACAUCGUAUGUACCGAAUCGGGUUUGGGUUUGGGGUUUGGGAAAGUAUUAUGUUACGCCGUUCGGAUCUGCACUUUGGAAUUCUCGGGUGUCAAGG` is reported as -1.03.

Series 4 — method: RNA Bind-n-Seq; molecule type: RNA; matrix: in vitro; tested at: 365 nM; relative to: no-protein control; reading: higher = stronger binding
Target: RNA binding protein fox-1 homolog 2, RRM domain, GST-SBP tag (RBFOX2, Homo sapiens, UniProt O43251-10, residues 100-194)
Setting: natural RNA segment, single round, ends assumed
Residues (chain): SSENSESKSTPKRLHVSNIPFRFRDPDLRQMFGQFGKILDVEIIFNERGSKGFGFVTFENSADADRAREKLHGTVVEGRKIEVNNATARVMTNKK
`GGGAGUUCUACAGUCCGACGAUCGGGGCAUCAGCUCUGGUGUCCCUGAGAGACGAGAAGCCUGUGGGAACGACAGAAGAACAUGGCAUUUUUAUAAAUUAUUUUUUUGAAAUAAAUCUCUGUGUGCCUGGUGGUGGAAUUCUCGGGUGCCAA`: “RBNS enrichment (R)” 0.72.
Under “RBNS enrichment (R)”, `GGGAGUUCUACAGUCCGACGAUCUUUGAAGCUCUAUGUUGCCAUAAUUACCAUCAAGUACACACUGUUGGCAAAAGGCUAACACCUGACUUUAGAAAAUGCUGAUUUGAGAACAAAAGGAAAGGUCUUUUUUCUGGAAUUCUCGGGUGCCAA` is recorded as 0.304.
`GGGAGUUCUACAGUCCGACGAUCAUGCUUUUGACACUGUUUCUAGAAUUUUAAAGUUGAAAAAUGAUGAUAUAAUCCAGAAAUUGUUACUUCGGAGCAUGACAAUAGAUUUCUUUAACAAAGACUCAAGAUCAUGGAAUUCUCGGGUGCCAA`: “RBNS enrichment (R)” 0.394.
For `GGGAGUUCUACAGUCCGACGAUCGGAUACAAGAUUAAUCUUUAGAAAUUUUGAAUUUUCUACUUGAGAUAUAAAAAUUCAGUAAAAUGUAAUCUGUUUUUAAUCUAUACUGAGAUAGAUAGAUGGCAGAUAGAUGGAAUUCUCGGGUGCCAA`, “RBNS enrichment (R)” read 0.791.
`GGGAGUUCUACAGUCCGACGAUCAGAGCGGCUGAGGGCUGCCUCACUGCAAAUCCUCCCCACAGCGUCAGUGAAAGUCGUCCUUGUCUCAGAAUGACCAGGGGCCAGCCAGUGUCUGACCAAGGUCAAGGGGCUGGAAUUCUCGGGUGCCAA`: “RBNS enrichment (R)” 1.07.
`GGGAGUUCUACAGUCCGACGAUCGAAUGGCCACCAGGCUUCCCAGAGUUCUAUGGUCUUCUUCCCAAGAGAGUUUUUAAUUGUAAAUGCAUACUUGGGAAGGACUUAGAGUUUUAAACUGUUUUUUGCUUUUGUGGAAUUCUCGGGUGCCAA`: “RBNS enrichment (R)” 0.58.
`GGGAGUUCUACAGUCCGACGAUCGUUGUCCUGGGUCUGGCAGUGGUUGUGAUUUAUAGCCAAUUGUGCUAAAGGAUUUUUCUACCUUGAGAUCUCCCGAGAAAUGAAAACUCAGGCAGUUUAGUCCAUAGUAGUGGAAUUCUCGGGUGCCAA` — result for “RBNS enrichment (R)”: 0.489.
`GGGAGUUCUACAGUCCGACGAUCCUGAAGAGGCCUGGGGGGUGGUAUAUGGCCCCUCCCCAUCAGGCGCUAAGGGGACACCCCUUCCCCAGGUCUUUUAUUUGUUUAAGUUAUUUUUGCACAAAUGACUCUUUUGGAAUUCUCGGGUGCCAA`: “RBNS enrichment (R)” 0.43.
For `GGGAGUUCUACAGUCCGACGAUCCCCCAGAAACAUGACCUCCCACUGCAGGGUGUUGAAGGCCGAGCCCUCCCUCCGCUGAGCAUGUGAUGUCACCCCCUCUGUUUGGAGCUUCUUUAGGUCAAAGAAAUCAAUGGAAUUCUCGGGUGCCAA`, “RBNS enrichment (R)” read 5.04.

Excerpt of the above (series 1):
`AATTATTC` has an E-score of 0.394.
With `ACGTCTAA` the E-score was 0.0996.
`CATCCTGG` gave an E-score of -0.0659.
